Experimental data of several laboratories.

With `CC(C)[C@H]1NC(=O)C[C@H]2/C=C/CCSSC[C@@H](NC1=O)C(=O)N[C@H](Cc1cccc3ccccc13)C(=O)NCC(=O)O2` the half-life was 0.3 h (nude mouse, blood; intravenous, 4 mg/kg).
For `CCCCCCCC(=O)NC[C@H](NC(=O)[C@H](CO)NC(=O)CN)C(=O)N[C@@H](Cc1ccccc1)C(=O)N[C@@H](CC(C)C)C(=O)N[C@@H](CO)C(=O)N1CCC[C@H]1C(=O)N[C@@H](CCC(=O)O)C(=O)N[C@@H](Cc1c[nH]cn1)C(=O)N[C@@H](CCC(N)=O)C(=O)N[C@@H](CCCNC(=N)N)C(=O)N[C@H](C(=O)N[C@@H](CCC(N)=O)C(=O)N[C@H](C(=O)N[C@@H](CCCNC(=N)N)C(=O)N1CCC[C@H]1C(=O)N1CCC[C@H]1C(=O)N[C@@H](Cc1c[nH]cn1)C(=O)N[C@@H](CCCCN)C(=O)N[C@@H](C)C(=O)N1CCC[C@H]1C(=O)N[C@@H](Cc1c[nH]cn1)C(=O)N[C@H](C(=O)N[C@H](C(=O)O)C(C)C)C(C)C)C(C)C)C(C)C`, the half-life was 0.198 h (mouse, plasma; intraperitoneal, 7.2 mg/kg).
`CCCCCCCC(=O)NCCCC[C@H](NC(=O)[C@H](Cc1ccccc1)NC(=O)[C@@H](CCCNC(=N)N)NC(=O)[C@@H](N)Cc1ccc(O)cc1)C(N)=O` gave a half-life of 1.26 h (male CD-1 mouse, plasma; intravenous, 3 mg/kg).
`CCc1nn(C)c2nc(-c3ccc(C(=O)O)cc3)nc(NCc3ccccc3)c12` has a half-life of roughly 1 h (male CD-1 mouse, plasma; intravenous, 1 mg/kg).
The half-life of `C[C@@](O)(C(F)F)[C@H](NC(=O)c1ccc(C#CC#CC2CC2)cc1)C(=O)NO` is reported as 1 h (mouse, plasma; intravenous, 40 mg/kg).
With `O=C(CN1CCN(c2cc3c(cc2F)c(=O)c(C(=O)O)cn3C2CC2)CC1)Nc1ccc(Cl)cc1` the half-life was 5.68 h (mouse, plasma; intravenous, 1.25 mg/kg).
The half-life of `CS(C)(=O)=Nc1ccc(-c2ccc(-c3nc4cc(O[C@@H]5CO[C@H]6[C@@H]5OC[C@H]6O)[nH]c4cc3F)cc2)cc1` is reported as 3.1 h (female C57BL/6 mouse, plasma; intravenous, 3 mg/kg).
`c1ccc(C2(CCNC3CCC4(SCCS4)c4ccccc43)CCOC3(CCCC3)C2)nc1` (stereo not shown) gave a half-life of 0.78 h (male CD-1 mouse, plasma; intravenous, 0.3 mg/kg).
`COc1nc(CC=C(C)CC=CC(C)=CC(C)C(OC2OC(CO)C(O)C(O)C2O)C(C)=CCO)c(C)c(O)c1OC` (stereo not shown) gave a half-life of 0.443 h (male C57BL/6 mouse, plasma; intravenous, 2 mg/kg).
The half-life of `O=c1cc(-c2ccccc2)oc2c(Br)c(O)c(O)c(O)c12` is reported as 6.4 h (C57BL/6 mouse, plasma; oral, 150 mg/kg, single dose).
The half-life of `CC(C)[C@H](N)C(=O)N[C@H]1CSSC[C@@H](C(=O)N[C@H](C(N)=O)C(C)C)NC(=O)[C@H](Cc2c[nH]c3ccccc23)NC(=O)[C@H](CCCCN)NC(=O)[C@H](CCCCN)NC(=O)[C@H](Cc2c[nH]c3ccccc23)NC(=O)[C@H](CCCCN)NC(=O)[C@H](CCCNC(=N)N)NC(=O)[C@H](CCCCN)NC(=O)[C@H](Cc2c[nH]c3ccccc23)NC(=O)[C@H](CCCCN)NC(=O)[C@H](CCCCN)NC(=O)[C@H](Cc2c[nH]c3ccccc23)NC(=O)[C@H](CCCNC(=N)N)NC(=O)[C@H](CCCCN)NC1=O` is reported as 1.8 h (male C57BL/6 mouse, plasma; intravenous, 8 mg/kg).
For `CCCC[C@@H]1NC(=O)[C@H](Cc2ccc(O)cc2)NC(=O)[C@@H]2CCCN2C(=O)[C@H](CC(=O)O)NC(=O)[C@H](C)NC(=O)[C@H](Cc2ccccc2)NC(=O)[C@@H]2CSCCC(=O)N3CN(CN(C3)C(=O)CCSC[C@@H](C(=O)N[C@@H](C)C(N)=O)NC1=O)C(=O)CCSC[C@H](NC(C)=O)C(=O)N[C@@H](CC(C)(C)C)C(=O)N1CCC[C@H]1C(=O)N[C@@H](CCC(=O)O)C(=O)N[C@H](CCCCNC(=O)CCc1cn(CCOCCOCCOCCN(CCOCCOCCOCCC(=O)N[C@H]3CSCCC(=O)N4CN5CN(C4)C(=O)CCSC[C@H](NC(=O)[C@@H](CC(=O)O)NC(=O)[C@H](Cc4cccc6ccccc46)NC(=O)[C@@H]4CCCN4C3=O)C(=O)N[C@@H](CCSC)C(=O)N[C@@H](CCCCNC(=N)N)C(=O)N[C@@H](CC(=O)O)C(=O)N[C@@H](Cc3c[nH]c4ccccc34)C(=O)N[C@@H](CO)C(=O)N[C@@H]([C@@H](C)O)C(=O)N3CCC[C@H]3C(=O)N3C[C@H](O)C[C@H]3C(=O)N[C@@H](Cc3c[nH]c4ccccc34)C(=O)N[C@H](C(N)=O)CSCCC5=O)CCOCCOCCOCCn3cc(CCC(=O)NCCCC[C@H]4NC(=O)[C@H](CCC(=O)O)NC(=O)[C@@H]5CCCN5C(=O)[C@H](CC(C)(C)C)NC(=O)[C@@H](NC(C)=O)CSCCC(=O)N5CN6CN(C5)C(=O)CCSC[C@H](NC(=O)[C@H](Cc5ccc(O)cc5)NC(=O)[C@@H]5CCCN5C4=O)C(=O)N[C@@H](Cc4ccccc4)C(=O)N[C@@H](C)C(=O)N[C@@H](CC(=O)O)C(=O)N4CCC[C@H]4C(=O)N[C@@H](Cc4ccc(O)cc4)C(=O)N[C@@H](CCCC)C(=O)N[C@H](C(=O)N[C@@H](C)C(N)=O)CSCCC6=O)nn3)nn1)C(=O)N1CCC[C@H]1C(=O)N[C@@H](Cc1ccc(O)cc1)C(=O)N2`, the half-life was roughly 2.3 h (mouse, plasma; intravenous, 30 mg/kg).
For `COc1ccc(F)cc1S(=O)(=O)Nc1cnc2c(c1)C(=O)NCCO2`, the half-life was 1.4 h (male C57BL/6 mouse, plasma; oral, 3 mg/kg, single dose).
